Experimental data pooled from the literature.
Each numbered part is a random draw from the data of one study; scales do not carry over between parts.
UniProt Q8N4C8, sequence (whole entry, looked up): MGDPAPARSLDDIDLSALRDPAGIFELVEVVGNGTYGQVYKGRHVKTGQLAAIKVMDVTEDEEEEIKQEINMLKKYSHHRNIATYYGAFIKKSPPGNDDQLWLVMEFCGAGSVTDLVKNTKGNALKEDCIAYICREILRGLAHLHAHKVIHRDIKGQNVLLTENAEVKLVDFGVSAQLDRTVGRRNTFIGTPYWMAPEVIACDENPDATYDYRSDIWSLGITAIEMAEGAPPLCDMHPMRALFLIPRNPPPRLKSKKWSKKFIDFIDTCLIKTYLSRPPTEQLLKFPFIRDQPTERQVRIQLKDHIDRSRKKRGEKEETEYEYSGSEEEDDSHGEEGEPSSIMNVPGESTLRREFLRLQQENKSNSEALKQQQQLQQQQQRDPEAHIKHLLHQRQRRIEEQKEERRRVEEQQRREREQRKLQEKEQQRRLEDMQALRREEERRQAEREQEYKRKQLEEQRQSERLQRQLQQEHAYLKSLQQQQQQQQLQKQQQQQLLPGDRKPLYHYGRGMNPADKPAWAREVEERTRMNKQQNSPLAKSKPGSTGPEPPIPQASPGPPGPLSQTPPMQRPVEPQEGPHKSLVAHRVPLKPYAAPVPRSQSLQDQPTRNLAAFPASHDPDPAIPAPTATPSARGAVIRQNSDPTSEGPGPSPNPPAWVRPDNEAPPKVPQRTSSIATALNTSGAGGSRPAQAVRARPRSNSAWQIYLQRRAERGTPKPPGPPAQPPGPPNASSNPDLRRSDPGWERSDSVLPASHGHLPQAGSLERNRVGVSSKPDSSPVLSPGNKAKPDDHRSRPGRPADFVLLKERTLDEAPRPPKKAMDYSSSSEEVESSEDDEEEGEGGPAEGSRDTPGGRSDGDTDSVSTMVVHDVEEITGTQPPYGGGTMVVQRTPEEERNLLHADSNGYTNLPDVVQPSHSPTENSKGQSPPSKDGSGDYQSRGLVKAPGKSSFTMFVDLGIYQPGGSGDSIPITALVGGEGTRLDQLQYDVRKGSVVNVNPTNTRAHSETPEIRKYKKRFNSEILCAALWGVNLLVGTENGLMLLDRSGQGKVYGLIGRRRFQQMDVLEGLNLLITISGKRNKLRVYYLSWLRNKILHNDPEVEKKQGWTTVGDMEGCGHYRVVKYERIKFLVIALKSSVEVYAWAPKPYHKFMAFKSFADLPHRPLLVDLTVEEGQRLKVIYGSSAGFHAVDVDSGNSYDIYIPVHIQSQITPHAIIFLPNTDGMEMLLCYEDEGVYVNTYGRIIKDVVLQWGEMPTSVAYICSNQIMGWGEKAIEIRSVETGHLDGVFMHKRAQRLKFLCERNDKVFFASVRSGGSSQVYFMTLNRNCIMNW
UniProt P00519, sequence (whole entry, unmodified, looked up): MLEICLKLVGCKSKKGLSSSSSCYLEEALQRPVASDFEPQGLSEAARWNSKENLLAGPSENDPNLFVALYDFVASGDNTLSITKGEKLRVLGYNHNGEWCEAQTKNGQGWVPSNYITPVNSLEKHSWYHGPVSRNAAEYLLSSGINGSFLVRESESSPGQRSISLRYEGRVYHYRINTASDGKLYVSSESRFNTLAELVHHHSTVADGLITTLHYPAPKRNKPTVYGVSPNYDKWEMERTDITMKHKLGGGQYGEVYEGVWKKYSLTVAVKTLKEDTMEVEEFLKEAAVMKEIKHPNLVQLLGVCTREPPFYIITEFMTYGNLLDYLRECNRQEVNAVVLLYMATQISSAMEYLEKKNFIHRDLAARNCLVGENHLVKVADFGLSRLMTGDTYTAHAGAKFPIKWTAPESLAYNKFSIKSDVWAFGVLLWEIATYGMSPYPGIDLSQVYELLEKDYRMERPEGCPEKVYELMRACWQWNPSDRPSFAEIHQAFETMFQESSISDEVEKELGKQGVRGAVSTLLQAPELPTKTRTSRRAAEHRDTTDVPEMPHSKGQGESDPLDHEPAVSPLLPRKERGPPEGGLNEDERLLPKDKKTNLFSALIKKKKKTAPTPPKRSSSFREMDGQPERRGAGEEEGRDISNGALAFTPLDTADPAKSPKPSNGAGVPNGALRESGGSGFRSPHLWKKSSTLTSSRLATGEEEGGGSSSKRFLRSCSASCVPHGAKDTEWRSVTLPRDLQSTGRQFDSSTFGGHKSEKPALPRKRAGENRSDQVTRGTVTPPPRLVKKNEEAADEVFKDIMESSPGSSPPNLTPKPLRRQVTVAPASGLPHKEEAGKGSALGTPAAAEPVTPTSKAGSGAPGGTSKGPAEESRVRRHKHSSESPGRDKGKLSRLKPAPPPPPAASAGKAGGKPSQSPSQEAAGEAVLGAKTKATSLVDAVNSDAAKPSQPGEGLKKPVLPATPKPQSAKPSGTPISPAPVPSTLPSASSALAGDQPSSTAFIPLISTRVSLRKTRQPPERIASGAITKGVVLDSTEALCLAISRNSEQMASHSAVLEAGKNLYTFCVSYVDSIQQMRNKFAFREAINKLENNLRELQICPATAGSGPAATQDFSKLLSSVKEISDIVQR
UniProt Q9HBY8, sequence (whole entry, looked up): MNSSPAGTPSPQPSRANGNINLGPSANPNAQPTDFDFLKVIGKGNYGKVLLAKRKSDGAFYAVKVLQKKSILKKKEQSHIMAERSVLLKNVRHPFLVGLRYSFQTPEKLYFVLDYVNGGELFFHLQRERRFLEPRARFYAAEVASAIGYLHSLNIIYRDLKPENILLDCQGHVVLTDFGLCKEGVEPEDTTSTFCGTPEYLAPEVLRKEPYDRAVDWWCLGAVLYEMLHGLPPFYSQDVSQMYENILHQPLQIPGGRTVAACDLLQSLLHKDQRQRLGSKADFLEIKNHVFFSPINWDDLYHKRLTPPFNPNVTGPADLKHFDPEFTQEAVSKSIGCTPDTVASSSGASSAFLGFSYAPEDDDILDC
UniProt P49761, sequence (whole entry, looked up): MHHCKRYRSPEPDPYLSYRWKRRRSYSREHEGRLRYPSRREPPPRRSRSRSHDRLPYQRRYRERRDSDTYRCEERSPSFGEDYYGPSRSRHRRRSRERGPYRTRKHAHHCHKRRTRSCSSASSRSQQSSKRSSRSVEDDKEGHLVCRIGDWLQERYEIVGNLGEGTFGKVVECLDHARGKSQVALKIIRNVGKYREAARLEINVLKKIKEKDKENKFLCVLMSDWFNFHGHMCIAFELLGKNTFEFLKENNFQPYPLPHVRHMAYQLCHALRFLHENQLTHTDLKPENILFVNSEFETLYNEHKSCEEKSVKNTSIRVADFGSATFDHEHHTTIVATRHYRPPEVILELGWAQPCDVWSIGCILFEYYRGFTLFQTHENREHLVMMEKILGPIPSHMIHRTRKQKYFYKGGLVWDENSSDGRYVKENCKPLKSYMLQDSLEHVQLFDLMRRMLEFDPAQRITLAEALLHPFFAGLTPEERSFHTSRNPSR
UniProt P24723, sequence (whole entry, looked up): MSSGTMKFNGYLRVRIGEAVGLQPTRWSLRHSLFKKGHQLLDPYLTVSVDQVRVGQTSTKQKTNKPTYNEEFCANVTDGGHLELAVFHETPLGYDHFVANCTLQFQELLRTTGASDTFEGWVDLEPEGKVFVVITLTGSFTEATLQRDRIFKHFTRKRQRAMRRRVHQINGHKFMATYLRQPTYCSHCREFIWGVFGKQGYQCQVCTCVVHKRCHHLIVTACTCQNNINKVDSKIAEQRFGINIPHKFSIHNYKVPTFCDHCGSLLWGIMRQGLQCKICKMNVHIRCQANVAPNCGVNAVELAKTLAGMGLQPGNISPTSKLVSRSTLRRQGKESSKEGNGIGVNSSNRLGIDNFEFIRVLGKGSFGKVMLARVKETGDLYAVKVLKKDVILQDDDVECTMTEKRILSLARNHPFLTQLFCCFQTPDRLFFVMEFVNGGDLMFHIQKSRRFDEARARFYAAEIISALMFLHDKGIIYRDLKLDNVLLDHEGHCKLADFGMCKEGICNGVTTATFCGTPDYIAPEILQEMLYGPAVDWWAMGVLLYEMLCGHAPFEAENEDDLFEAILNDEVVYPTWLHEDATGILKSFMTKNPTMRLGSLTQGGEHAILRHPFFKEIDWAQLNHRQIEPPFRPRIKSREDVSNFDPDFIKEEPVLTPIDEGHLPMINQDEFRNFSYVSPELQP
UniProt Q96L34, sequence (whole entry, looked up): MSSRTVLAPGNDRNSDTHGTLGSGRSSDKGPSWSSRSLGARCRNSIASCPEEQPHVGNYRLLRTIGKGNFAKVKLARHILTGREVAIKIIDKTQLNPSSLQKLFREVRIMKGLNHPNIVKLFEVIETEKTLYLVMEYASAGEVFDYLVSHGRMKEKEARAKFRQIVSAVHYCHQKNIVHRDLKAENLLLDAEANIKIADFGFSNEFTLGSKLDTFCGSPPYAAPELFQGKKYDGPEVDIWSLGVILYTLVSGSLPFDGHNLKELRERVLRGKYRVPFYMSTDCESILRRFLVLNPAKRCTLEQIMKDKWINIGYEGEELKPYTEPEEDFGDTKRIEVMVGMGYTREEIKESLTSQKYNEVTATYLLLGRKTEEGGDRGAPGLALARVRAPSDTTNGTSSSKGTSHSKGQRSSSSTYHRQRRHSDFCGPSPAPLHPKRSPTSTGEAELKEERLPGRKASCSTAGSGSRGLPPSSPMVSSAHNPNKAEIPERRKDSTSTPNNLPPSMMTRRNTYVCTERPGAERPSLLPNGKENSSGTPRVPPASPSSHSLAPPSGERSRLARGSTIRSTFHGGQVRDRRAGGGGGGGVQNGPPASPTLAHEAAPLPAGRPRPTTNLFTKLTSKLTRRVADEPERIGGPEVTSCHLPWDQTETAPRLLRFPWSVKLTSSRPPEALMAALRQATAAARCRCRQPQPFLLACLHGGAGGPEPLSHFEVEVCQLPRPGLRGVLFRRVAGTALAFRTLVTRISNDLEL

Series 1
SMILES: CO[C@@H]1[C@H](N(C)C(=O)c2ccccc2)C[C@H]2O[C@]1(C)n1c3ccccc3c3c4c(c5c6ccccc6n2c5c31)C(=O)NC4
Observed: enzyme activity
Action: inhibitor
Concentration: 1 µM
target	inhibition
Protein kinase C eta type (PRKCH, Homo sapiens, UniProt P24723)	90%
Tyrosine-protein kinase ABL1, phosphorylated (ABL1, Homo sapiens, UniProt P00519, F317L)	12%
Misshapen-like kinase 1 (MINK1, Homo sapiens, UniProt Q8N4C8)	77%

Series 2
SMILES: CN([C@@H](Cc1ccc(OS(=O)(=O)c2cccc3cnccc23)cc1)C(=O)N1CCN(c2ccccc2)CC1)S(=O)(=O)c1cccc2cnccc12
Observed: enzyme activity
Action: inhibitor
Concentration: 0.5 µM
Relative to: control
target	remaining activity [%]
Myosin-IIIb (MYO3B, Homo sapiens, UniProt Q8WXR4)	88.5
Tyrosine-protein kinase TXK (TXK, Homo sapiens, UniProt P42681)	94.3
Cyclin-dependent kinase 9, with cyclin K (CDK9, Homo sapiens, UniProt P50750)	89.4
Calcium/calmodulin-dependent protein kinase type 1B (PNCK, Homo sapiens, UniProt Q6P2M8)	99.7
Dual specificity protein kinase CLK3 (CLK3, Homo sapiens, UniProt P49761)	103
MAP/microtubule affinity-regulating kinase 4 (MARK4, Homo sapiens, UniProt Q96L34)	98.8
cGMP-dependent protein kinase 2 (PRKG2, Homo sapiens, UniProt Q13237)	99.5
Rho-associated protein kinase 1 (ROCK1, Homo sapiens, UniProt Q13464)	97.9
Dual specificity mitogen-activated protein kinase kinase 1 (MAP2K1, Homo sapiens, UniProt Q02750)	75.3
Mitogen-activated protein kinase 1 (MAPK1, Homo sapiens, UniProt P28482)	95.5
Mitogen-activated protein kinase 14 (MAPK14, Homo sapiens, UniProt Q16539)	91
Misshapen-like kinase 1 (MINK1, Homo sapiens, UniProt Q8N4C8)	98.2

Series 3
Compound: O=C(NC[C@@H]1[C@H]2CN(C(=O)OCc3cc(C(F)(F)F)cc(C(F)(F)F)c3)C[C@@H]12)c1ccc2[nH]nnc2c1
Observed: cell-free assay
Technique: competition with immobilised ligand
Concentration: 1 µM
target	remaining binding
Serine/threonine-protein kinase Sgk2 (SGK2, Homo sapiens, UniProt Q9HBY8)	66%
Cyclin-dependent kinase 15 (CDK15, Homo sapiens, UniProt Q96Q40)	75%
Macrophage colony-stimulating factor 1 receptor, autoinhibited (CSF1R, Homo sapiens, UniProt P07333)	95%
Wee1-like protein kinase 2 (WEE2, Homo sapiens, UniProt P0C1S8)	93%
Proto-oncogene tyrosine-protein kinase receptor Ret (RET, Homo sapiens, UniProt P07949, M918T)	100%
Receptor-type tyrosine-protein kinase FLT3 (FLT3, Homo sapiens, UniProt P36888)	93%
Dual specificity mitogen-activated protein kinase kinase 6 (MAP2K6, Homo sapiens, UniProt P52564)	72%
MAP kinase-activated protein kinase 2 (MAPKAPK2, Homo sapiens, UniProt P49137)	100%
Tyrosine-protein kinase ABL1, phosphorylated (ABL1, Homo sapiens, UniProt P00519)	100%
Ribosomal protein S6 kinase alpha-3, C-terminal kinase domain (RPS6KA3, Homo sapiens, UniProt P51812)	89%

Series 4
Target: His6 tag
Technique: AlphaScreen counter screen
Concentration: concentration not given
SMILES	inhibition [%]
CC[C@H](CO)Nc1nc(NCc2ccccc2)c2ncn(C(C)C)c2n1	18.9
C=C(C)Cn1c(SCCC(=O)O)nc2c1c(=O)[nH]c(=O)n2C	2.9
N#CC[C@H](C1CCCC1)n1cc(-c2ncnc3[nH]ccc23)cn1	2.55
COc1ccc2nc(NC(=O)C3C4CCC(C4)C3C(=O)O)sc2c1 (centres unmarked)	0.55
COc1ccc2[nH]c([S+]([O-])Cc3ncc(C)c(OC)c3C)nc2c1 (centres unmarked)	-9.35
CC(=O)Nc1cn2c(NC(=O)c3cccnc3)c(Cc3ccccc3)nc2cn1	20.9
CCN1CCN(c2ccc(Nc3cc(N(C)C(=O)Nc4c(Cl)c(OC)cc(OC)c4Cl)ncn3)cc2)CC1	11
